Measurements of several laboratories.
A part holds a random share of what one study measured. Changes are numbered by the printed parent chain.

Study 1
Target: Sal-like protein 4, full length isoform B (SALL4, Homo sapiens, UniProt Q9UJQ4-2, residues 1-616)
Method: universal PBM
Molecule type: double-stranded DNA, one strand shown
Medium: in vitro
Tested at: not given
Notes: 8-mer, flanks averaged, mean of replicates
Reading: higher = stronger binding
For `GCCCCGGC`, the E-score was -0.381.
`CAGTGAGC` has an E-score of -0.205.
The E-score of `GACATGTC` is reported as 0.0485.
For `CCGACGCC`, the E-score was -0.223.
The E-score of `GCCAGGAC` is reported as -0.275.
With `GCTAACCC` the E-score was -0.275.
For `CTTCAGCA`, the E-score was -0.0896.
The E-score of `GTTCCCTA` is reported as 0.00598.

Study 2
Target: CCND1, cyclin fold, Cln2 fusion (human)
Method: yeast growth competition, sequencing
Medium: yeast
Notes: strong parent motif
Relative to: not given
Reading: higher = stronger binding
Starting sequence: viral docking peptide; KGVKRKLFAEDSS; partner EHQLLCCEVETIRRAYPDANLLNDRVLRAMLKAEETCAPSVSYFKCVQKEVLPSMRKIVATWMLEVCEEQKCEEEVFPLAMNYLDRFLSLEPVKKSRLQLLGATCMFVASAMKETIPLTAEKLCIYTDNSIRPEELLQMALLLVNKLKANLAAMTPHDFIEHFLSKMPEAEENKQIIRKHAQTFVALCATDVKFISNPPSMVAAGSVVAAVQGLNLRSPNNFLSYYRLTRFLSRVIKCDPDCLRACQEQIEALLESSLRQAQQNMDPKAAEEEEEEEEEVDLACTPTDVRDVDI
Under “normalised enrichment score”, `KGHKRKLFAEDSS [V3H]` is recorded as 0.379.
`KGVKRKLFAELSS [D11L]`: “normalised enrichment score” 0.0752.
`AGVKRKLFAEDSS [K1A]`: “normalised enrichment score” 1.21.

Study 3
Target: inorganic phosphate, free oxyanion
Method: microfluidic competitive inhibition
Medium: in vitro, cell-free expressed
Tested at: not given
Notes: derived from inhibition constants, unchanged parent 615000 nM
Reading: lower = stronger binding
Starting sequence: PafA, mature enzyme, eGFP fusion (Elizabethkingia meningoseptica, UniProt Q9KJX5); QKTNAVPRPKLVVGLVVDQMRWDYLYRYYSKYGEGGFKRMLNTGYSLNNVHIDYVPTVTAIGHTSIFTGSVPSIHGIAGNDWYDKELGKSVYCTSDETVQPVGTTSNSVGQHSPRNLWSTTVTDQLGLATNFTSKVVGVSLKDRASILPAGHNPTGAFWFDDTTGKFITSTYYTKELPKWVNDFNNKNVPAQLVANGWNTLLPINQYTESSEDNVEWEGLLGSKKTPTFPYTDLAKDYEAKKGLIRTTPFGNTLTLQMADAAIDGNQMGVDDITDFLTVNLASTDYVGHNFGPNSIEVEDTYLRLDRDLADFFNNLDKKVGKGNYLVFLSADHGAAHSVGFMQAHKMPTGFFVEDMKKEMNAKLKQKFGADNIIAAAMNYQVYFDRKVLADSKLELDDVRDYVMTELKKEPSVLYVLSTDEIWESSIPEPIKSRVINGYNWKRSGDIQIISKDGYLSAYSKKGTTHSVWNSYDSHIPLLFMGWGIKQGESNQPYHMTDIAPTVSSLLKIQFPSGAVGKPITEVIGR
Under “phosphate dissociation constant”, `K452V` is recorded as 507 µM.
For `G340V`, “phosphate dissociation constant” read 585 µM.
Under “phosphate dissociation constant”, `F328V` is recorded as 615 µM.

Study 4
Target: Phosphate system positive regulatory protein PHO4, full length, GST-tagged (PHO4, Saccharomyces cerevisiae, UniProt P07270, residues 1-312)
Method: competition protein-binding microarray
Molecule type: double-stranded DNA, one strand shown
Medium: in vitro
Tested at: 2 µM
Notes: whole 60-bp probe, lowest competitor level
With: Cbf1 competitor, 0.05 µM
Reading: higher = stronger binding
Construct (chain): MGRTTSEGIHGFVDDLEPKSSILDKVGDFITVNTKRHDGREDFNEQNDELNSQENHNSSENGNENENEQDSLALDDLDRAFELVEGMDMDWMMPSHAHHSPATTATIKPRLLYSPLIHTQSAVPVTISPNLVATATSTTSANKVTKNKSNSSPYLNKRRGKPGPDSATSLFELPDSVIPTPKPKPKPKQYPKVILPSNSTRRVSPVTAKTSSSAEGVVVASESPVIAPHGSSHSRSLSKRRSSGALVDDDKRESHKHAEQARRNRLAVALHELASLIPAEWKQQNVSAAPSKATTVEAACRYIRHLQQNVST
`AAGGCCTGGTCAACCATCGTGTAGGCGTCAAGCTTAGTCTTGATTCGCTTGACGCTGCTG` gave a fluorescence intensity of 7000 a.u.
With `ACCCCATTATCTGGAGGCGTGCCGACAGCTCCGTTGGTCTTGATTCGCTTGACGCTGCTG` the fluorescence intensity was 10800 a.u.
The fluorescence intensity of `CCCAAGAACAGGGCCCTCGTGGTCGTCAAATCTGTGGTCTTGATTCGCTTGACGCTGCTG` is reported as 10400 a.u.
The fluorescence intensity of `ACCCCAGCCGCCGGGTTCGTGCCAGTCTGGTAAGCCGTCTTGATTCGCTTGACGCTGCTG` is reported as 5840 a.u.
`GAAAGGGTTTAGTACCACATGCTATGATGCCCACTGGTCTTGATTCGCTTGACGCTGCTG` gave a fluorescence intensity of 10100 a.u.
With `AAGTTATGATATCTGCACGTGGAACACTTCCAATCTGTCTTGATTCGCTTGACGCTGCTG` the fluorescence intensity was 16800 a.u.
For `CTTTCCCGATCTTGCCTGGTGGGTGTAGCACATTTGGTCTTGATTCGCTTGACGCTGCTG`, the fluorescence intensity was 5170 a.u.
For `GCCCTGTAATGAAGCTGCGTGATGGGACCTGTGCCCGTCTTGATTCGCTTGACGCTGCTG`, the fluorescence intensity was 5820 a.u.

Some of these lines once more (study 1):
For `CTTCAGCA`, the E-score was -0.0896.
With `GCTAACCC` the E-score was -0.275.
